# Assay results collected from several papers.
# Protocols differ between the studies behind these lines. ± gives the spread as reported.
SMILES,organism,test,system,conditions,MIC
CC(C)c1ccc(Cn2ccc([C@H](C)[C@](O)(Cn3cnnn3)c3ccc(F)cc3F)n2)cc1,Candidozyma auris,growth,888 drug-resistant isolate,"24 h, 30 °C, ≥50% inhibition",8 µg/mL
CC[C@H](C)[C@@H]1NC(=O)CNC(=O)[C@H](CCCCN)NC(=O)[C@H](C)NC(=O)[C@H](CCC(=O)O)NC(=O)[C@H](Cc2ccccc2)NC(=O)[C@H](CO)NC(=O)[C@H](CC(C)C)NC(=O)[C@H](C(C)C)NC(=O)[C@H](CC(=O)O)NC(=O)[C@@H](NC(=O)[C@@H](NC(=O)[C@@H](N)C(C)C)[C@@H](C)O)CSSC[C@@H]2NC(=O)[C@H](CO)NC(=O)CNC(=O)CNC(=O)[C@H](CCCCN)NC(=O)[C@H](CCCCN)NC(=O)[C@H](CCCNC(=N)N)NC(=O)[C@H](CC(C)C)NC(=O)[C@H](C)NC(=O)[C@H]([C@@H](C)CC)NC(=O)[C@H](CSSC[C@@H](C(=O)N[C@@H](CCCNC(=N)N)C(=O)N[C@@H](CC(N)=O)C(=O)O)NC(=O)[C@H](C(C)C)NC(=O)[C@H](C)NC(=O)[C@H](C(C)C)NC(=O)CNC(=O)[C@H](CC(N)=O)NC(=O)[C@H](CCC(N)=O)NC2=O)NC(=O)[C@H](Cc2c[nH]cn2)NC(=O)[C@H](CC(C)C)NC(=O)[C@H](C)NC(=O)[C@H](C)NC(=O)[C@H](C)NC(=O)[C@H](CO)NC(=O)[C@H](Cc2c[nH]cn2)NC(=O)[C@H](CC(N)=O)NC(=O)[C@H](C(C)C)NC(=O)[C@H](C)NC1=O,Trichosporon beigelii,broth microdilution,KCTC 7707,28 °C,25 µM
CC[C@H](C)[C@H](NC(=O)[C@H](CO)NC(=O)[C@H](CO)NC(=O)[C@H](Cc1ccccc1)NC(=O)CN)C(=O)N[C@@H](Cc1ccccc1)C(=O)N[C@@H](CCCNC(=N)N)C(=O)NCC(=O)N[C@H](C(=O)N[C@@H](C)C(=O)N[C@@H](CCCCN)C(N)=O)C(C)C,Escherichia coli,,ATCC 8739,together with: 1 mM MgCl2,> 128 µM
O=C(NCc1nc(-c2ccc(Br)cc2)c[nH]1)Nc1ncc(Sc2ccccn2)s1,Bifidobacterium breve,broth microdilution,ATCC 11863,together with: verapamil 50 µg/mL,> 128 µM
CN(Cc1cc(C2CC2)on1)C(=O)c1cccc(-c2ccc3c(c2)CCO3)c1,Cryptococcus neoformans,broth microdilution,"H99, RPMI-MOPS",37 °C,32 µg/mL
CC[C@H](C)[C@H](NC(=O)[C@H](CCCN)NC(=O)[C@H](CC(N)=O)NC(=O)[C@H](CC(C)C)NC(=O)[C@H](Cc1ccccc1)NC(=O)[C@H](CCCN)NC(=O)[C@H](CCCCNC(=N)N)NC(=O)[C@H](CC(C)C)NC(=O)[C@H](CC(C)C)NC(=O)[C@H](CCCN)NC(=O)[C@H](CCCCNC(=N)N)NC(=O)[C@H](CC(C)C)NC(=O)CNC(C)=O)C(=O)N[C@@H](CCCN)C(=O)N[C@@H](CCCCNC(=N)N)C(N)=O,Citrobacter freundii,"bacterial growth, broth microdilution",multidrug-resistant,,3.12 µM
OB(O)c1ccc(OCc2ccccc2)nc1F,Citrobacter freundii,bacterial growth,AmpC-overproducing clinical isolate,cefotaxime alone,4 µg/mL
CN[C@@H]1[C@H](O)[C@H](NC)[C@H]2O[C@]3(O)[C@H](O[C@@H]2[C@H]1O)O[C@H](C)C[C@@]3(O)CNCc1ccccc1,Streptococcus pneumoniae,,OVA2 drug resistant,,6 µg/mL
C[C@@H](c1ccn(Cc2ccc(OC(F)(F)F)cc2)n1)[C@](O)(Cn1cnnn1)c1ccc(F)cc1F,Candidozyma auris,growth,791 drug-resistant isolate,"24 h, 30 °C, ≥50% inhibition",1 µg/mL
CC(C)C[C@@H]1NC(=O)[C@H](C)NC(=O)[C@H](NC(=O)[C@H](CO)NC(=O)[C@@H](CCCCN)NC(=O)[C@@H](CC(C)C)NC(=O)[C@@H](N)Cc2ccccc2)[C@H](C)OC(=O)[C@H](CC(C)C)NC1=O,Bacillus subtilis Staphylococcus epidermidis,,ATCC 14990,tested as TFA salt,2 µg/mL
CC[C@H](C)[C@H](NC(=O)[C@H](CCCCNC(=N)N)NC(=O)[C@H](CC(N)=O)NC(=O)[C@H](CC(C)C)NC(=O)[C@H](Cc1ccccc1)NC(=O)[C@H](CCCCNC(=N)N)NC(=O)[C@H](CCCCNC(=N)N)NC(=O)[C@H](CC(C)C)NC(=O)[C@H](CC(C)C)NC(=O)[C@H](CCCCNC(=N)N)NC(=O)[C@H](CCCCNC(=N)N)NC(=O)[C@H](CC(C)C)NC(=O)CNC(C)=O)C(=O)N[C@@H](CCCCNC(=N)N)C(=O)N[C@@H](CCCCNC(=N)N)C(N)=O,Enterobacter aerogenes,broth microdilution,multidrug-resistant,,12.5 µM
[O-][N+]1=C(c2ccc(Cl)cc2)C2=NCCCN2c2ccccc21,Clostridium sporogenes,microbial growth,ATCC3584,,2 µg/mL
CN[C@@H]1[C@H](O)[C@H](NC)[C@H]2O[C@]3(O)[C@H](O[C@@H]2[C@H]1O)O[C@H](C)C[C@@]3(O)CNCc1ccc(Cl)cc1,Streptococcus pneumoniae,,R6,,1.6 µg/mL
[O-][N+]1=C(c2ccccc2)C2=NCCN2c2ccccc21,Clostridium sporogenes,microbial growth,ATCC3584,,0.25 µg/mL
CC[C@H](C)[C@H](NC(=O)[C@H](C)NC(=O)[C@@H](NC(=O)[C@H](CC(=O)O)NC(=O)[C@H](CCCCN)NC(=O)[C@H](CO)NC(=O)[C@@H](NC(=O)[C@H](CC(N)=O)NC(=O)[C@H](C)NC(=O)[C@@H](NC(=O)[C@H](CCC(=O)O)NC(=O)[C@H](CCCCN)NC(=O)[C@@H](NC(=O)[C@@H](NC(=O)[C@H](Cc1c[nH]cn1)NC(=O)[C@H](CCCCN)NC(=O)[C@@H](NC(=O)[C@H](CCCCN)NC(=O)[C@H](CCCCN)NC(=O)[C@@H](NC(=O)[C@H](CC(C)C)NC(=O)[C@H](CCCCN)NC(=O)[C@H](CC(N)=O)NC(=O)[C@H](Cc1ccccc1)NC(=O)[C@H](CCCNC(=N)N)NC(=O)[C@H](CCCCN)NC(=O)[C@H](CCCNC(=N)N)NC(=O)[C@H](Cc1ccccc1)NC(=O)CN)C(C)C)C(C)C)[C@@H](C)O)[C@@H](C)CC)[C@@H](C)O)C(C)C)C(C)C)C(=O)N[C@H](C(=O)N[C@@H](C)C(=O)NCC(=O)N[C@@H](CO)C(=O)NCC(=O)N[C@H](C(=O)N[C@@H](C)C(=O)N[C@H](C(=O)NCC(=O)N[C@@H](C)C(=O)N[C@@H](C)C(=O)N[C@@H](CCSC)C(N)=O)C(C)C)C(C)C)C(C)C,"Enterobacteriaceae, Acinetobacter baumannii",,"reference strains, CAMHB",,4 µg/mL
C[C@@H](c1ccn(Cc2ccc(I)cc2)n1)[C@](O)(Cn1cnnn1)c1ccc(F)cc1F,Candidozyma auris,microbial growth,887,"24 h, drug-resistant strain, clinical isolate",2 µg/mL
CCCCCCCCCCCCCC(=O)N[C@H](CCN)C(=O)N[C@@H]1C(=O)N[C@@H](CCN)C(=O)N[C@@H](CC(C)C)C(=O)N[C@@H](CCN)C(=O)N[C@H](Cc2ccccc2)C(=O)N[C@@H](CC(C)C)C(=O)N[C@@H](CCN)C(=O)N[C@H](CCN)C(=O)N[C@@H](C(C)C)C(=O)N[C@@H](CC(=O)O)C(=O)O[C@@H]1C,fungal pathogens,,,"highest concentration tested, inactive",> 64 µg/mL
COc1cc(O)c2c(=O)c3c(O)c(-c4c(C)cc5c(c4O)C(=O)C4=C(O)C[C@H](OC)[C@@H](O)[C@]4(C)O5)c(C)cc3oc2c1OC,Alternaria brassicicola,microbial growth,BCC,,> 82.4 µM
CN(CCCN)[C@H](C(=O)O)[C@H](O[C@@H]1O[C@H](CN)[C@@H](O)[C@H]1O)[C@H]1O[C@@H](n2ccc(=O)[nH]c2=O)[C@H](O)[C@@H]1O,Clostridioides difficile,microbial growth,ATCC43596,,> 25 µg/mL
CC[C@H](C)[C@H](NC(=O)[C@H](C)NC(=O)CNC(=O)[C@@H](N)CCSC)C(=O)N[C@@H](C)C(=O)N[C@@H](CCCCN)C(=O)N[C@@H](CC(C)C)C(=O)N[C@H](C(=O)N[C@@H](C)C(=O)N[C@@H](CCCCN)C(=O)N[C@@H](Cc1ccccc1)C(=O)NCC(=O)N[C@@H](Cc1c[nH]c2ccccc12)C(=O)N1CCC[C@H]1C(=O)N[C@@H](Cc1ccccc1)C(=O)N[C@H](C(=O)N[C@@H](CCCCN)C(=O)N[C@@H](CCCCN)C(=O)N[C@@H](Cc1ccccc1)C(=O)N[C@@H](Cc1ccc(O)cc1)C(=O)N[C@@H](CCCCN)C(=O)N[C@@H](CCC(N)=O)C(=O)N[C@@H](CCCNC(=N)N)C(=O)N[C@@H](CCSC)C(=O)N[C@@H](CCC(N)=O)C(=O)N[C@@H](Cc1ccccc1)C(=O)N[C@H](C(=O)NCC(=O)N[C@@H](CCC(N)=O)C(=O)NCC(=O)N[C@@H](Cc1c[nH]c2ccccc12)C(=O)N[C@H](C(=O)N[C@H](C(=O)N[C@@H](CC(=O)O)C(=O)N[C@@H](CCC(N)=O)C(=O)N[C@H](C(=O)N[C@@H](CCC(=O)O)C(=O)N[C@@H](CCCCN)C(=O)N[C@@H](Cc1c[nH]c2ccccc12)C(=O)N[C@@H](CC(C)C)C(=O)N[C@@H](CCCCN)C(=O)N[C@@H](CCCNC(=N)N)C(=O)N[C@@H](Cc1c[nH]cn1)C(=O)O)[C@@H](C)CC)[C@@H](C)CC)[C@@H](C)O)[C@@H](C)CC)[C@@H](C)CC)C(C)C,Bacillus subtilis subsp. subtilis,,ATCC 23857,10 h,3.1 ± 0.1 µM
[O-][N+]1=C(c2ccsc2)C2=NCCCN2c2ccccc21,Prevotella intermedia/nigrescens,,ATCC 25611,,0.25 µg/mL
C=C(NC(=O)C(=C)NC(=O)c1csc(C2=NC3c4csc(n4)C4NC(=O)c5csc(n5)C(C(C)(O)C(C)O)NC(=O)C5CSC(=N5)C(=CC)NC(=O)C(C(C)O)NC(=O)c5csc(n5)C3(CC2)NC(=O)C(C)NC(=O)C(=C)NC(=O)C(CCSC)NC(=O)C(C(C)CC)NC2C=Cc3c(C(C)O)cc(nc3C2O)C(=O)OC4C)n1)C(N)=O (stereo not drawn),Bacillus sp.,broth microdilution,ATCC 27859,"18 h, 37 °C",0.086 µg/mL
O=[N+]([O-])c1ccc(C2=[N+]([O-])c3ccccc3N3CCCN=C23)cc1,Clostridium sporogenes,microbial growth,ATCC3584,,≤ 0.06 µg/mL
CC(=O)NC1C(OC2OC(CC(O)C3OC(n4ccc(=O)[nH]c4=O)C(O)C3O)C(O)C(O)C2NC(=O)COCc2ccc(N3CCC(Oc4ccc(OC(F)(F)F)cc4)CC3)cc2)OC(CO)C(O)C1O (stereo not drawn),Streptococcus salivarius,,ATCC 7752,,> 50 µg/mL

# A few entries again:
SMILES,organism,test,system,conditions,MIC
[O-][N+]1=C(c2ccc(Cl)cc2)C2=NCCCN2c2ccccc21,Clostridium sporogenes,microbial growth,ATCC3584,,2 µg/mL
[O-][N+]1=C(c2ccccc2)C2=NCCN2c2ccccc21,Clostridium sporogenes,microbial growth,ATCC3584,,0.25 µg/mL
[O-][N+]1=C(c2ccsc2)C2=NCCCN2c2ccccc21,Prevotella intermedia/nigrescens,,ATCC 25611,,0.25 µg/mL
COc1cc(O)c2c(=O)c3c(O)c(-c4c(C)cc5c(c4O)C(=O)C4=C(O)C[C@H](OC)[C@@H](O)[C@]4(C)O5)c(C)cc3oc2c1OC,Alternaria brassicicola,microbial growth,BCC,,> 82.4 µM
